Published values collected from several papers.
Every numbered part comes from another study and shows a few of its results, in no order. Changes are numbered by the printed parent chain.

Sample 1
Target: Hepatocyte nuclear factor 3-alpha (Foxa1, Mus musculus, UniProt P35582, residues 1-468, full length assumed)
Technique: EMSA with sequencing
Form: double-stranded DNA, one strand shown
Medium: in vitro
Tested at: 10 and 20 nM
Notes: whole designed probe, mean of two concentrations, ends assumed
Baseline: negative control set to 0
Direction: higher = stronger binding
Constant ends, left off below: GTGAGCGGTGCCCATTGATGGGGAAC … TTTCACTGGGATCGTGGGGAC
Target sequence (chain): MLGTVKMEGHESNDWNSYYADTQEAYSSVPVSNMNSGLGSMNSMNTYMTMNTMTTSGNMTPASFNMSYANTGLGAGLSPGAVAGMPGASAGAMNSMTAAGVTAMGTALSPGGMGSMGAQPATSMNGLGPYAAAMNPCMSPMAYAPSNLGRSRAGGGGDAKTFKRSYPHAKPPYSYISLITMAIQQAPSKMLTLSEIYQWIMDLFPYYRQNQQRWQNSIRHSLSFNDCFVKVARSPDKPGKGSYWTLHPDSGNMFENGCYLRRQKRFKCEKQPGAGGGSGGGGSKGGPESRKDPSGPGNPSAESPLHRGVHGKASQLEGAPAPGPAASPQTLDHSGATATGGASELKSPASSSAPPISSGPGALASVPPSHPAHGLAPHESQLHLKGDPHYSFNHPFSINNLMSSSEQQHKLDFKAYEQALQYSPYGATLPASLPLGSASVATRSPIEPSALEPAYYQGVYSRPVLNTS
Sequence | normalised bound fraction
GGAAGCACTAGAGGTAATATTTCCTTACTGGACCCCAGTCCTAAATTACCTACTTTTATCCAAATTAGGCTTATTTTAAGATATTTCAAAAAGTAATCTTGTAAAATGGTGAAATACACATGTTATGTCTGATGTTAGGCTTTACCTGGATTTTTAATCCCGTAAGACAAGAAATGTGAATATCAGAATGACT | -0.0721 ratio
ATGCTTGGAAATATTTTAAACAGTGAAATCACCAACAAAAAGAGCATAAAAATGTGAAAAACATGGCTCTAAATAGCCCGCCAAAAGGGCACTTATTTACAGAGCTGAACCACAAAGGCAGAACGTCATCTTGTTCGATCTCAGCTAGGAACGTGCTCATAGGGTGACTCAGATTTTTGGCCACTGTGTGCAT | 0.108 ratio
TGTATAAAGCAATTTATTTTGGAAGAGTAGGCTGCTCTTGAATTGTTTTAAGTAATGGTGATATTTTAGGAAATAAGTGGCAAAGTCACAAAGTAAACAGGTCCACAGTACAACCTTGTCATTTCAATACAGTAACCTTATCTAGATATCGTATTCCACTAGTATTGCCAAATACGATATTTGAGGAATATCA | 0.291 ratio
TGTAATTAGAGAAAAGTTCGGGTAGAAAACGCTATCATCCATTTCATTGTGTGGGTTGCTTAAGAAATGTTTATTTGTGGACCAGGAATTTCTTATTTGCATTGGCCCTGCCTTTGTGTATATATCCACTGCTTAGCAAAATCCTCTTCCTGAGCTGGTGAGCCTGGAAGCCTGGAAATGAAGGCCCATGGCA | 0.343 ratio
ATTTTATAAGACATCGAAGGAAAAAATGAAATTAGAATAAGCATTCTTTTGTTTTGTTTTGTTTAAGTAAGGAAAACAAAAATAGAAAGACAATGTAAACATCAGTGGGGAAATGTAAGTATGAACACACGAGGAACCATCTGGGAAAGTGATCACAGGATATGATACAGCACATGAAAAAATACACAAATAG | 0.444 ratio
ATCTTCCCCCTCTTCCTTGCCCCACCAGCTCACCTACGGGGGTTATTTGCACAAAGGAAAATAAATAAAGCCGGCATTCGTTAACCCTCTTCACGCGCATACTGCTGTTTGCTCTGCATGAATCATGGTCCTTACGCGACGCCAGGCTCCGGGAGAGCAAAGCACCGTGTCAGGCGCATGATCCGGGGTGGCC | 0.387 ratio
AATAGCGCTCTGGAGAGAAGGTCCGTTCCATGCCCAGGTAGGGAGGAGGGGGAAAAATGATACTGGCGGGCAGGGAGAGGGGAAGGCAAGAAAGCAAACAGGCGTGGAAGAGCTGTGAGCTCAAATCTGACTTCTTTTGTCTGTAGACGGGGGAATCCAGGGTGACTGGGTATAATCTGTATTATCTAGGTCC | 0.0546 ratio
AGGTGAATTGGCTGCTTCCATCCTGGCTTGGAACTTCAGACATAGAAGCCTTGGGACTTTCTCAGGACTTCTGACTCATGCTCTCCAGATTCAGCAAACAAGCATCTCTGTGGATCACGTGACCTTAGCCAGGGATGTTGGTGAAACTGTGTGTTGGTCTAGGTACCTAGCCCATGCTAGGTGCTCATCGAAT | 0.0546 ratio

Sample 2
Target: Histone acetyltransferase KAT6A, winged helix 2, GST fusion (KAT6A, Homo sapiens, UniProt Q92794, residues 85-181)
Technique: protein binding microarray
Form: double-stranded DNA, one strand shown
Medium: in vitro
Tested at: not given
Notes: 8-mer, flanks averaged, mean of 2 arrays, mostly near background
Baseline: not given
Direction: higher = stronger binding
Residues (chain): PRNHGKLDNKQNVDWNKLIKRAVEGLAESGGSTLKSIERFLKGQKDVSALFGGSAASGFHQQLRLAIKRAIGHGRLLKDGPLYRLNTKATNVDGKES
Sequence | E-score
AAGTTTTC | 0.139
AGCTCACA | 0.0967
CATTTCTA | 0.0258
AAAAAATT | -0.0348
ACCTGCCG | 0.201
CCTCCAAA | 0.106
CTTCATTC | -0.08
ACTAGACT | -0.289
TACGCCAA | -0.0596
GCCTACCA | -0.118
AGCCGAAC | 0.0782
CGTGGGCC | 0.0892
TGCGTCAA | 0.0188
CGGAGTCA | -0.0606
AGGTTAGC | -0.0939
AGAGTCCA | -0.0632
GTCTGGTA | -0.0894
ACGCTGAT | -0.0522
TAGTTCCA | 0.093
CAATACCA | -0.0757
TCTCAAGA | -0.0832

Sample 3
Target: CCNE1, cyclin fold, Cln2 fusion (human)
Technique: yeast growth competition, sequencing
Medium: yeast
Notes: strong parent motif
Baseline: not given
Direction: higher = stronger binding
Starting sequence: PPP1R3F docking peptide (human); VAPRRVLFADEAL; partner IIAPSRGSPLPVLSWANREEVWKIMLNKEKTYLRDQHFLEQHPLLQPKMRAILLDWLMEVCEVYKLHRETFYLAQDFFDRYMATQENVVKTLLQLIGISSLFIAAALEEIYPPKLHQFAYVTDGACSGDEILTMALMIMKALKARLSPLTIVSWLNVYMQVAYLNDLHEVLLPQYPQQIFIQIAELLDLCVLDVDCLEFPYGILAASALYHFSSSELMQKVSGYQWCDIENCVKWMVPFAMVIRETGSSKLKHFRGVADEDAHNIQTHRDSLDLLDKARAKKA
Change | normalised enrichment score
R5K F8L | 0.158
F8L | 0.413
L13A | 2.74
R5A L7A | -0.323
R5A | 0.585
L7A | 0.526
P3A | 5.95
V6A | 0.656

Sample 4
Target: Interferon regulatory factor 3, full length, phosphomimetic (IRF3, Homo sapiens, UniProt Q14653, residues 1-427, S386D/S396D/S398D/S402D/T404D/S405D)
Sequence of UniProt Q14653 (whole entry, unmodified, looked up): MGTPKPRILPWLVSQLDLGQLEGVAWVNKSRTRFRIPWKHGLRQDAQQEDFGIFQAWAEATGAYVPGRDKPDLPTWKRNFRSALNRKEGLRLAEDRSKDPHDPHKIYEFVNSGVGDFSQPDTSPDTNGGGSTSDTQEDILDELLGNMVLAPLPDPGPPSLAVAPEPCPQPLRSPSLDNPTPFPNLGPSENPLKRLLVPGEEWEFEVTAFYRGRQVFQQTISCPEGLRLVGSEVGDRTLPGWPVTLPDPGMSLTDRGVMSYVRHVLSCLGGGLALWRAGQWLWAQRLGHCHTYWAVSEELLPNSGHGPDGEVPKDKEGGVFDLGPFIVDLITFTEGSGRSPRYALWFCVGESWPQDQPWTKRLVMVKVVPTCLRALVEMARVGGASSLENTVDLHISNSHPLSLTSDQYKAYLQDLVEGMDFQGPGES
Technique: protein-binding microarray
Form: double-stranded DNA, one strand shown
Medium: in vitro
Tested at: 2540 nM top
Notes: 60-bp whole probe
Added: salmon DNA 0.4 mg/ml
Baseline: random background probes
Direction: higher = stronger binding
Constant ends, left off below: GCCTAGCAC … GTCTTGATTCGCTTGACGCTGCTG
Sequence | fitted relative affinity
GACGGGCTGGACTATCGGGACGTGCTA | -0.966 z-score
GACGGTTTCGTTCTCGGGACGTGCTAG | 7.97 z-score
TTAGATTTCAGACTGCATTAGTGCTAG | 0.746 z-score
TCAGTGCTCCTTTTAATACTGTGCTAG | 2.42 z-score
TTAGGTATCGACTTTCGGATAGTGCTA | 1.72 z-score
TTAGGTTTCGGGACTGGCTTAGTGCTA | 4.37 z-score
TACCTTTTCACTTTACACACGTGCTAG | 3.14 z-score
GACGATATCAGGCTCGAGACGTGCTAG | 0.0479 z-score
TTAGGTTTCGGGACTGGGTTGGTGCTA | 4.4 z-score
TTAGGACTGGGTCTCGGGTAGTGCTAG | -0.929 z-score
TGGGCTGTGGGTTTGAGTCTGTGCTAG | -1.63 z-score
TTTGATATCAGTCTCGATTAGTGCTAG | 1.44 z-score
TTAGGTATCCTAATCCTTTAGTGCTAG | 4.09 z-score
TACTATATGCATGTAAATAAGTGCTAG | 0.226 z-score
GACGTTATCGGGTATCGGGACGTGCTA | 0.415 z-score
TTAGGCATCGGTTTCGGTTAGTGCTAG | 4.51 z-score
TTCCCTCCCTAATTCTGATTGTGCTAG | 0.891 z-score
TTAGGTCTCGGAGTGGGTTAGTGCTAG | -0.462 z-score

Sample 5
Target: RNA binding protein fox-1 homolog 2, RRM domain, GST-SBP tag (RBFOX2, Homo sapiens, UniProt O43251-10, residues 100-194)
Technique: RNA Bind-n-Seq
Form: RNA
Medium: in vitro
Tested at: 365 nM
Notes: natural RNA segment, single round, ends assumed
Baseline: no-protein control
Direction: higher = stronger binding
Constant ends, left off below: GGGAGUUCUACAGUCCGACGAUC … UGGAAUUCUCGGGUGCCAA
Residues (chain): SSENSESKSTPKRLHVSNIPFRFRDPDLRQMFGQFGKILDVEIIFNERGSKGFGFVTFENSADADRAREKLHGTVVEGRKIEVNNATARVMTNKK
Sequence | RBNS enrichment (R)
AUGAUAAAACUCGGCCCCUGGUGAAUGACUCCCUCCCGGGUGCUCACUACCUGGGACUCUCUGCGAUGUACAUAAUAUUUAAUGCGGUUCCGGCAGCAGCCUUCUCUGGA | 1.11
UUCUCCUCCAGUGGACCUGAAGGACGAGGGAUGGGAUUUCAUGUAACCAAGAGUAUUCCAUUUUUACUAAAGCAGUGUUUUCACCUCAUAUGCUAUGUUAGAAGUCCAGG | 0.334
UCAGACAAUGGUAUAUAUUUUUGUUAUCAGGUGCAUGUCUGUCUGAUUUCUUUUUUUUUCCUGUUGGACUAUGUUUGUGAACAUAAUUGUCAUAAGUUAUGUUUCAGAUU | 29.1
AUGGAUAAACAGAAACACUUAGAGGUGAGAAGGUCUGUCUUCAAGAUCCAAGGUAAGAUUGCCUUCAGUCUGAUGUUUGUUCUCAAGGACUUAUCCCCUACAAUAUUCUC | 0.37
GUGUGCACAUGUGUGGGUGUGUGUGCACAUGUUUGGAUGUGUGCACAUGUGCAUGCCUGUUUCUUUUUGCCAGGGAGACAACUGAAUUUGGGGCAUUUUUCUACAAACAC | 1.53
GCUGUUUGAACAGCAGCGUUUCAUAGGAAGAGAAAAAGAUCAAUCUUGUAUUUUCUGACCACAUAAAGGCUUCUUCUCUUUGUAAUAAAGUAGAAAAGCUCUCCUCACUG | 0.223
UCCCUCUCUCCGUGCAGUAGCUGUGUGUCCGAGGUCAGUGUGCGGAAUCACAGCCAAGGACGUGAAGAGAUGUACGGGGGAAAGAGAAGCUGGGGAUUGGAUGAAAGUCA | 0.439
UAUCUAUCUAUCUGGAUUUGACUUGAAUUUUUAAAAUGUGUAUCGUUUAAAAAAAAAAAUGUUUGCAAAUUUUGCACAUAGGAUCUUGCACUGUUCAUUUUCAGUGGGGU | 0.738
CUCAGUGAAGGCCCAUGAAGGAAAUUGGGACUAGUUUAUAGGAGAACGUAUCAAUACAGUUUAUAAAGCCAAGAAUUGCUAUGAUUUAAGACUAAGAUCUGUCUUUUUGG | 0.62
UCUAGAUUUCUGGAGUUAUGUUCCCCACAUCCAAAGCCAGUGUCUACAUACAGCUGCCAUGCCCUUUCUGAACAAAGGCUGGAGUUGUCCAAUUGCAGUUCUUCUUCGCA | 0.686
ACAGCCCCGUAGAACCUGCAGUGUCCUGACUAAAGCUGCCGACUUGCUCUCAUUUGCAGUUUCUGUGUCAUGUUUGCUUCUUGAAUCUGAUUGACUAGAAUAUUUCUCCC | 0.846
CGGAGGGUACCUCCUGUUCCCUGUCUGAGCAUCCUGCAUGGAAGUCAAAGGAAAUCCCUUUCUUGGUGACGACUUAAAUCUGGGUUCCCUCAGACAUUGGGUUGCACCCC | 0.349
